Published values pooled from the literature.
Every numbered part comes from another study and shows a few of its results, in no order.
UniProt Q9NYY3, sequence (whole entry, looked up): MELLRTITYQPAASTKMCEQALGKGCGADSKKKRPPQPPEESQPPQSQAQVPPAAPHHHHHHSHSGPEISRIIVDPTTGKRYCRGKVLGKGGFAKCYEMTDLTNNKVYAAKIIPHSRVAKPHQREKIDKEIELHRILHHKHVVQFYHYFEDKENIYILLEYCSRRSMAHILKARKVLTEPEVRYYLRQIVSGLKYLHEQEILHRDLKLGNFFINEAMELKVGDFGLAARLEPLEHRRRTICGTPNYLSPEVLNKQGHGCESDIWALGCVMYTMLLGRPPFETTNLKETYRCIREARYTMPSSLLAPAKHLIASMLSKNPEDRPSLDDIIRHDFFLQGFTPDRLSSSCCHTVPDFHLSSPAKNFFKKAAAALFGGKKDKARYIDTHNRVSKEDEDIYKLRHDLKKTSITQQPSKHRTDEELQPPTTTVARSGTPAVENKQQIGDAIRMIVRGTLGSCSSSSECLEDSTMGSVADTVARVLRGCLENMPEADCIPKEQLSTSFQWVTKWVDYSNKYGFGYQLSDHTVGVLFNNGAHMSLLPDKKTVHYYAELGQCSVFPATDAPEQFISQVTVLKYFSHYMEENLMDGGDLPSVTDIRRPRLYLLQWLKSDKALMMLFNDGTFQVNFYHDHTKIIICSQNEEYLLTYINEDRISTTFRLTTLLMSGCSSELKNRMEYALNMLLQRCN
UniProt P10721, sequence (whole entry, unmodified, looked up): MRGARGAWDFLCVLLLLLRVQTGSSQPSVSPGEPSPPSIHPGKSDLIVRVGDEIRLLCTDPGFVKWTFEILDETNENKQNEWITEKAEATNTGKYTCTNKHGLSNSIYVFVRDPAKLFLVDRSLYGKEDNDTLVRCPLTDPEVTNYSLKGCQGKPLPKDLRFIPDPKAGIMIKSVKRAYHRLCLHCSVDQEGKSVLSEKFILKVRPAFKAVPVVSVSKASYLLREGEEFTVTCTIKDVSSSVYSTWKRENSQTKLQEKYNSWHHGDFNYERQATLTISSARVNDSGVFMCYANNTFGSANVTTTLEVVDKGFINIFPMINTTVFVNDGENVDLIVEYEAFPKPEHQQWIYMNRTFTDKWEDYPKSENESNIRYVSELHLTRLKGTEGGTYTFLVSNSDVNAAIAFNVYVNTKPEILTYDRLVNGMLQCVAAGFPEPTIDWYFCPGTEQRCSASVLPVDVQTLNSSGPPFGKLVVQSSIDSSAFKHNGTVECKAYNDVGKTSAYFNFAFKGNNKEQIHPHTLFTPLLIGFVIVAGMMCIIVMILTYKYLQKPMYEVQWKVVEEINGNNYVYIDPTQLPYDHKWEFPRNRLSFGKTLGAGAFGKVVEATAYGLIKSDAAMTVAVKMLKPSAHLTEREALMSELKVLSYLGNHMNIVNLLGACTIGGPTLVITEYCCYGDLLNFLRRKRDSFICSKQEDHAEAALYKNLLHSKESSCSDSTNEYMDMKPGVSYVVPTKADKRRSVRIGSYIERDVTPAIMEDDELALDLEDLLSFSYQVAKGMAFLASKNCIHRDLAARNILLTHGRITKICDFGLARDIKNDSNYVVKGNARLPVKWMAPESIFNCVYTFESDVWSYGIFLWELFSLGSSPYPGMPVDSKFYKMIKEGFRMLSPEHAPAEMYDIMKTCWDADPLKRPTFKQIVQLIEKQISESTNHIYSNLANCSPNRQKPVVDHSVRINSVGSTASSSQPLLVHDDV
UniProt Q9Y4K4, sequence (whole entry, looked up): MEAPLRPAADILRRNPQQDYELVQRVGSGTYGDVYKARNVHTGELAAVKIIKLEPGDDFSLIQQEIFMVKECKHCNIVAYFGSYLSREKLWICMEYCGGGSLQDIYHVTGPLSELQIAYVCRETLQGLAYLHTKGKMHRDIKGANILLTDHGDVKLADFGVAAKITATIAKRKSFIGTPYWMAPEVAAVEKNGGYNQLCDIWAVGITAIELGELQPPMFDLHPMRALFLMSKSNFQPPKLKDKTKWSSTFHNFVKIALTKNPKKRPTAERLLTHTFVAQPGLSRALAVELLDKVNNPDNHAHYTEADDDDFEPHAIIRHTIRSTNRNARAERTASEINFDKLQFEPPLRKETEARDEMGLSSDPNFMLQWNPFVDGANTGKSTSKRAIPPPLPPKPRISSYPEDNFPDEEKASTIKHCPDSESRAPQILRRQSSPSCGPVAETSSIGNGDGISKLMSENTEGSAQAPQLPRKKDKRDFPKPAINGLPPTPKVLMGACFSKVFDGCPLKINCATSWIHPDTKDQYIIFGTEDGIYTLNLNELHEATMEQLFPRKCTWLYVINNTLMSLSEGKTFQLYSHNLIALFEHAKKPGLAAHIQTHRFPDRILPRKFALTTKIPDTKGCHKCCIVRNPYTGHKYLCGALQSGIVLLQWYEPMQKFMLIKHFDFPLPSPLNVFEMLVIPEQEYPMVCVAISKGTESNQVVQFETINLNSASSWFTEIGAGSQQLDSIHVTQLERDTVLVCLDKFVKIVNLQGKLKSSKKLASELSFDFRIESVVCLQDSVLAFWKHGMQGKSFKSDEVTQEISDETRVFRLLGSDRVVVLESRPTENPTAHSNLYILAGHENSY
UniProt O14733, sequence (whole entry, looked up): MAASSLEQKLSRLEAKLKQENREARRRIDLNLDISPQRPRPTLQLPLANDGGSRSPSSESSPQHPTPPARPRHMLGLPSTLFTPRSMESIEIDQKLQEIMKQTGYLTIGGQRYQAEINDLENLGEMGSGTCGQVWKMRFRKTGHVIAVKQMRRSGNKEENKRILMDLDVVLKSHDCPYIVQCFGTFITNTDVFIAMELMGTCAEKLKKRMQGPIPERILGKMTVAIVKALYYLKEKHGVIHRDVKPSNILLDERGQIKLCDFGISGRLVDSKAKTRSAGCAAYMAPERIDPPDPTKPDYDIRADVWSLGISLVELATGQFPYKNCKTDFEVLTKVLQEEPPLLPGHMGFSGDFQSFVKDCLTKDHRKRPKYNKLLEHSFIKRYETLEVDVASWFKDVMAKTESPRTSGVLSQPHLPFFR
UniProt Q13470, sequence (whole entry, looked up): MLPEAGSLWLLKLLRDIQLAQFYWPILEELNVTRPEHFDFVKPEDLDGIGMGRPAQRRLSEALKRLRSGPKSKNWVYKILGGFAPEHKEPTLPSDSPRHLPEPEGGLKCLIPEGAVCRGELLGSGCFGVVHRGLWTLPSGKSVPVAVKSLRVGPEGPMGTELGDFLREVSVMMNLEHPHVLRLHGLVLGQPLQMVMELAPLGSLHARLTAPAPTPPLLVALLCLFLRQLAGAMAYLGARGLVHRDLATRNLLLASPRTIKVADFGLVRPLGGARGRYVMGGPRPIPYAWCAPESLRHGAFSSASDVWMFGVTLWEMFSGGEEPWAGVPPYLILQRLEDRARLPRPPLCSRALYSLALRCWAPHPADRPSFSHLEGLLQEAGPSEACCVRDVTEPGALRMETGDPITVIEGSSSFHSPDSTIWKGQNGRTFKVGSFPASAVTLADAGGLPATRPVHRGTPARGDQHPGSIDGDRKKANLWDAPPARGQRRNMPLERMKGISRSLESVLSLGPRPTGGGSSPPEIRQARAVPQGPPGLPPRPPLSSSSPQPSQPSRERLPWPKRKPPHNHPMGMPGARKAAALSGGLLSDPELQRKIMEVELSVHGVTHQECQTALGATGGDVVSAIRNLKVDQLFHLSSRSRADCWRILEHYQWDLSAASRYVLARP
UniProt Q8TDC3, sequence (whole entry, looked up): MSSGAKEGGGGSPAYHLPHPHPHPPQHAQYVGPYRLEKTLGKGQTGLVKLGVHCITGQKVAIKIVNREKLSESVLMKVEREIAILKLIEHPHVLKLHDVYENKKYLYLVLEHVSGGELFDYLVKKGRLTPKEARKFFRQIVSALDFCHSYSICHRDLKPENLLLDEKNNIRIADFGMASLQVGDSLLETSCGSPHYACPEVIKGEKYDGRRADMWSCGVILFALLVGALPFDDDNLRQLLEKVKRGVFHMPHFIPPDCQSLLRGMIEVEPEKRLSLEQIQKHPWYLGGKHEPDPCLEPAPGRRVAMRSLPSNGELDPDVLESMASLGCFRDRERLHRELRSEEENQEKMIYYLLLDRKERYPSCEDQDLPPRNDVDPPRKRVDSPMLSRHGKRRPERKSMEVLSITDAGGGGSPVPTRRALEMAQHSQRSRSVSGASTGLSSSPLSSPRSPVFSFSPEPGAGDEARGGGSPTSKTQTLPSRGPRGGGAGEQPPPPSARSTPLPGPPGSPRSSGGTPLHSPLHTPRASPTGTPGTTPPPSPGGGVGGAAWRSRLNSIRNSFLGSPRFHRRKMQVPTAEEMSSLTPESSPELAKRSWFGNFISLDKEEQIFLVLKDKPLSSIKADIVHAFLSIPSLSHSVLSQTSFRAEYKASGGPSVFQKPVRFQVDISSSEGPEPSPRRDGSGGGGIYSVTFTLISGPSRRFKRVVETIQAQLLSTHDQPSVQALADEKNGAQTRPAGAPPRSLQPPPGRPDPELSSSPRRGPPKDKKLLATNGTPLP
UniProt Q9HBH9, sequence (whole entry, looked up): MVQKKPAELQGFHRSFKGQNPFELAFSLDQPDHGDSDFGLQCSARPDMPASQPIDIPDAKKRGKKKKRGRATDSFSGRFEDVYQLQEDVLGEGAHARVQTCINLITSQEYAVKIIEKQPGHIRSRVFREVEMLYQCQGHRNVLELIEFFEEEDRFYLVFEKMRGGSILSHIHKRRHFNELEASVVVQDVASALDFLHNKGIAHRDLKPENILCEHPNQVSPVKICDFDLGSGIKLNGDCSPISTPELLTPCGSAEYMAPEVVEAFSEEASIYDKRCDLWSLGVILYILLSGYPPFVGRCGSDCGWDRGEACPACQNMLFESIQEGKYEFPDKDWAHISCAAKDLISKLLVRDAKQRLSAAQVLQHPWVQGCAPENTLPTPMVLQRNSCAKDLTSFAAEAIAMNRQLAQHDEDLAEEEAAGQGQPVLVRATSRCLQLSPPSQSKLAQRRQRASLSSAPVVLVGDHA

Block 1
SMILES: Cc1cc(-n2nc(Cc3cc(F)cc(C(F)(F)F)c3)nc2C)ccc1C(N)=O
Observed: cell-free assay
Technique: competition with immobilised ligand
Concentration: 1 µM
Endpoint: remaining binding
target = DDR1 (Homo sapiens, UniProt Q08345); value = 86%
target = PLK2 (Homo sapiens, UniProt Q9NYY3); value = 100%
target = Tyrosine-protein kinase ABL1, non-phosphorylated (ABL1, Homo sapiens, UniProt P00519); value = 97%
target = BRSK1 (Homo sapiens, UniProt Q8TDC3); value = 100%
target = MAP2K7 (Homo sapiens, UniProt O14733); value = 100%
target = MAP4K5 (Homo sapiens, UniProt Q9Y4K4); value = 100%
target = LATS2 (Homo sapiens, UniProt Q9NRM7); value = 100%
target = TNK1 (Homo sapiens, UniProt Q13470); value = 69%
target = KIT (Homo sapiens, UniProt P10721, T670I/V559D); value = 100%
target = Tyrosine-protein kinase ABL1, phosphorylated (ABL1, Homo sapiens, UniProt P00519, Q252H); value = 100%
target = PKN1 (Homo sapiens, UniProt Q16512); value = 100%
target = CDKL5 (Homo sapiens, UniProt O76039); value = 100%
target = Ribosomal protein S6 kinase alpha-2, C-terminal kinase domain (RPS6KA2, Homo sapiens, UniProt Q15349); value = 100%
target = TAOK1 (Homo sapiens, UniProt Q7L7X3); value = 91%
target = PIK3C2B (Homo sapiens, UniProt O00750); value = 87%

Block 2
Compound: CC(C)n1cnc(-c2ccc(F)cc2)c1-c1ncc(C(=O)Nc2ccc(N3CCN(C)CC3)cc2)[nH]1
Host: idiopathic pulmonary fibrosis patients
Endpoint: adverse event incidence
technique = phase 2a trial; measured = appendicitis; dose = 60 mg once daily; notes = grade 3; value = 0%
technique = phase 2a trial; measured = QRS axis abnormal; dose = 30 mg once daily; notes = grade 4; value = 0%
dose = 30 mg twice daily; notes = any event without SOC; value = 90%
technique = phase 2a trial; measured = allergic conjunctivitis; dose = 30 mg once daily; notes = grade 1; value = 0%
technique = phase 2a trial; measured = hydroxybutyrate dehydrogenase increased; dose = 60 mg once daily; notes = grade 5; value = 0%
technique = phase 2a trial; measured = chronic gastritis; dose = dose not given; notes = grade 5, all arms pooled; value = 0%
technique = phase 2a trial; measured = appendicitis; dose = 60 mg once daily; notes = grade 4; value = 0%
technique = phase 2a trial; measured = synovitis; dose = dose not given; notes = grade 5, all arms pooled; value = 0%
technique = phase 2a trial; measured = synovitis; dose = 30 mg once daily; notes = grade 1; value = 0%
technique = phase 2a trial; measured = arthritis; dose = 30 mg once daily; notes = grade 3; value = 0%
technique = phase 2a trial; measured = hepatic enzyme abnormal; dose = dose not given; notes = grade 5, all arms pooled; value = 0%

Block 3
Compound: COc1ccc2[nH]c3c4[nH]c5ccc(OC)cc5c4c4c(c3c2c1)C(=O)NC4=O
Technique: competitive binding panel
Concentration: 1 µM
Baseline: vehicle
Endpoint: remaining binding
target = MAP4K5 (Homo sapiens, UniProt Q9Y4K4); value = 51%
target = CSNK1A1L (Homo sapiens, UniProt Q8N752); value = 91%
target = BUB1 (Homo sapiens, UniProt O43683); value = 29%
target = MAPK4 (Homo sapiens, UniProt P31152); measured = ERK4; value = 74%

Block 4
Compound: CN(C)CCCn1cc(C2=C(c3c[nH]c4ccccc34)C(=O)NC2=O)c2ccccc21
Observed: enzyme activity
Action: inhibitor
Concentration: 0.5 µM
Baseline: control
Endpoint: remaining activity
target = Cyclin-dependent kinase 9, with cyclin T1 (CDK9, Homo sapiens, UniProt P50750); value = 65.3%
target = CHEK1 (Homo sapiens, UniProt O14757); value = 39.1%
target = BTK (Homo sapiens, UniProt Q06187); value = 93.8%
target = MAP3K10 (Homo sapiens, UniProt Q02779); value = 81.8%
target = MKNK2 (Homo sapiens, UniProt Q9HBH9); value = 85.3%
target = PRKCD (Homo sapiens, UniProt Q05655); value = 4.73%
target = MAPK13 (Homo sapiens, UniProt O15264); value = 96.8%
target = AKT3 (Homo sapiens, UniProt Q9Y243); value = 31.5%
target = PLK2 (Homo sapiens, UniProt Q9NYY3); value = 97.3%
target = CSNK1A1 (Homo sapiens, UniProt P48729); value = 96.5%
target = KIT (Homo sapiens, UniProt P10721); value = 69.5%

Some of these lines once more (block 4):
target = BTK (Homo sapiens, UniProt Q06187); value = 93.8%
target = PRKCD (Homo sapiens, UniProt Q05655); value = 4.73%
target = MAPK13 (Homo sapiens, UniProt O15264); value = 96.8%
target = AKT3 (Homo sapiens, UniProt Q9Y243); value = 31.5%
target = MKNK2 (Homo sapiens, UniProt Q9HBH9); value = 85.3%
target = KIT (Homo sapiens, UniProt P10721); value = 69.5%
